Published values gathered from unrelated publications.
Values joined by “and” are separate records of one study, mostly repeats; a detail may differ. ± marks the error that the study gave.
CSNK2A1: Casein kinase II subunit alpha (CSNK2A1, Homo sapiens, UniProt P68400)

By UniProt entry, the sequences of proteins in these tests, tags left out.
UniProt P68400, whole entry: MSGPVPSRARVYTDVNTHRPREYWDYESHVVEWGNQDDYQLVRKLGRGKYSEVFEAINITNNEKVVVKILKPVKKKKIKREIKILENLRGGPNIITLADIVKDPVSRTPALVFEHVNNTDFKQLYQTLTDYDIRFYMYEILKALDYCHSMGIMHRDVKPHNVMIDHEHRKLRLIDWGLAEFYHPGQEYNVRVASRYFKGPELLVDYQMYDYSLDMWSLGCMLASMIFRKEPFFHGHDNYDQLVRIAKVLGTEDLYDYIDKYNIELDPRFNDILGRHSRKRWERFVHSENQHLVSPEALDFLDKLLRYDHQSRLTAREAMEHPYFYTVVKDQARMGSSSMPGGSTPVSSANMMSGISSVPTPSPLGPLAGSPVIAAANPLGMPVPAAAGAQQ
UniProt O75874, whole entry R132H: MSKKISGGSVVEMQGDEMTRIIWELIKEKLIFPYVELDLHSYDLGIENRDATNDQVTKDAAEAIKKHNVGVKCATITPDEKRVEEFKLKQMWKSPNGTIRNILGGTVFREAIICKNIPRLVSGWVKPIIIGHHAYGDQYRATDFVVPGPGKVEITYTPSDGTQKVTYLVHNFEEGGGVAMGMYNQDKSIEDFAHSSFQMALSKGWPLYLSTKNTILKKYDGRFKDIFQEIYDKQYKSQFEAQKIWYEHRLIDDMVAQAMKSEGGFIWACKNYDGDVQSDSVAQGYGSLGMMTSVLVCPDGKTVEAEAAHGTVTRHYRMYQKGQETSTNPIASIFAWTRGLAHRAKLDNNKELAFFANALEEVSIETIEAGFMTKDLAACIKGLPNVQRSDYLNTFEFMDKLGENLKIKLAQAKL
UniProt O00311, whole entry: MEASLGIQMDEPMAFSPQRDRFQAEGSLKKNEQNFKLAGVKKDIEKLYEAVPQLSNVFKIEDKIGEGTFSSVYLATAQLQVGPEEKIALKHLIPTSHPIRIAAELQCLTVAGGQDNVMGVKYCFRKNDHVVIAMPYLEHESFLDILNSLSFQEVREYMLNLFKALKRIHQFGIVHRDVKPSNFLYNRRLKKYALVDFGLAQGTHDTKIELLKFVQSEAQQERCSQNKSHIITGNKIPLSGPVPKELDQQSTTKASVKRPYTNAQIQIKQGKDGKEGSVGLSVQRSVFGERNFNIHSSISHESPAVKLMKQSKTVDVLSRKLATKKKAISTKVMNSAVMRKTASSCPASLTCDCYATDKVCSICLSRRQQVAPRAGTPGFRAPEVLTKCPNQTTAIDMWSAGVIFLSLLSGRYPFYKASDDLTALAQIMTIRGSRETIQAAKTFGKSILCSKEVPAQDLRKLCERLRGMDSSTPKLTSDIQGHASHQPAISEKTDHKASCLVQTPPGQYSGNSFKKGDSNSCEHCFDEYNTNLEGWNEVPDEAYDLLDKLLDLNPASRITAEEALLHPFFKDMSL
UniProt P07384, whole entry: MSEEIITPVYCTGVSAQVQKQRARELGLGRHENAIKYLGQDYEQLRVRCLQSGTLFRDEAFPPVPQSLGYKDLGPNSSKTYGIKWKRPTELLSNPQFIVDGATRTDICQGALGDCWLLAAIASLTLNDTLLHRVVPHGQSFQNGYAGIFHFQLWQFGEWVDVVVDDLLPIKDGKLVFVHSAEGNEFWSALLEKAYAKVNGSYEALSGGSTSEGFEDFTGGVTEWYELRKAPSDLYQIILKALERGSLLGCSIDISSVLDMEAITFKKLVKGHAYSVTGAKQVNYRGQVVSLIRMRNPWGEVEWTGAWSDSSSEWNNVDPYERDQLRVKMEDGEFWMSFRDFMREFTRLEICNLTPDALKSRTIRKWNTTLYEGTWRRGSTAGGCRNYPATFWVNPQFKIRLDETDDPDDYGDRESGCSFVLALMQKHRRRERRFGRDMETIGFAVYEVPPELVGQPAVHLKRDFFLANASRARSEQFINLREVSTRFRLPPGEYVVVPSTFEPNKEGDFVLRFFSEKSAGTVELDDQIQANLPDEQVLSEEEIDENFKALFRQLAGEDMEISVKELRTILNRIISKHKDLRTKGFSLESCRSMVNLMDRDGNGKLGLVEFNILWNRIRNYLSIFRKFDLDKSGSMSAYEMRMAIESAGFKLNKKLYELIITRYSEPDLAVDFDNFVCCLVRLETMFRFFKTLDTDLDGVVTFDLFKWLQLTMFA
UniProt Q99685, whole entry: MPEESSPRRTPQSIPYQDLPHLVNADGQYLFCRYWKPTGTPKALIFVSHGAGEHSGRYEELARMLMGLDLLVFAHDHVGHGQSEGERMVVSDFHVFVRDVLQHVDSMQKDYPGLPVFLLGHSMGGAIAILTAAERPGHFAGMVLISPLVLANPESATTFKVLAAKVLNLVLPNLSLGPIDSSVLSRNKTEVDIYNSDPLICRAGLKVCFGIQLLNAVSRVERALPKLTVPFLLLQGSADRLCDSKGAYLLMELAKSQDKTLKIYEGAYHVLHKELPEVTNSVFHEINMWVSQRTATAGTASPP
UniProt P28300, whole entry, looked up: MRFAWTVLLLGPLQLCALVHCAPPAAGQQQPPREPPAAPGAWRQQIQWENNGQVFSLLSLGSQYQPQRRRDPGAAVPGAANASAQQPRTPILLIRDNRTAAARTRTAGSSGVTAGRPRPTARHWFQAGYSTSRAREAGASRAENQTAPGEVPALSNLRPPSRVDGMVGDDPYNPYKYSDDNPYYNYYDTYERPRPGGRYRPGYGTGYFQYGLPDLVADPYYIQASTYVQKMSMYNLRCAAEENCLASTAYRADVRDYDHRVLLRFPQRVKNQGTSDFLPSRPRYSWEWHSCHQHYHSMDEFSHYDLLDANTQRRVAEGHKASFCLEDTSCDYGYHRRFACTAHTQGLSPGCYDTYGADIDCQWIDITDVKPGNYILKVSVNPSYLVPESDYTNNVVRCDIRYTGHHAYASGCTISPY
UniProt P05067, whole entry, looked up: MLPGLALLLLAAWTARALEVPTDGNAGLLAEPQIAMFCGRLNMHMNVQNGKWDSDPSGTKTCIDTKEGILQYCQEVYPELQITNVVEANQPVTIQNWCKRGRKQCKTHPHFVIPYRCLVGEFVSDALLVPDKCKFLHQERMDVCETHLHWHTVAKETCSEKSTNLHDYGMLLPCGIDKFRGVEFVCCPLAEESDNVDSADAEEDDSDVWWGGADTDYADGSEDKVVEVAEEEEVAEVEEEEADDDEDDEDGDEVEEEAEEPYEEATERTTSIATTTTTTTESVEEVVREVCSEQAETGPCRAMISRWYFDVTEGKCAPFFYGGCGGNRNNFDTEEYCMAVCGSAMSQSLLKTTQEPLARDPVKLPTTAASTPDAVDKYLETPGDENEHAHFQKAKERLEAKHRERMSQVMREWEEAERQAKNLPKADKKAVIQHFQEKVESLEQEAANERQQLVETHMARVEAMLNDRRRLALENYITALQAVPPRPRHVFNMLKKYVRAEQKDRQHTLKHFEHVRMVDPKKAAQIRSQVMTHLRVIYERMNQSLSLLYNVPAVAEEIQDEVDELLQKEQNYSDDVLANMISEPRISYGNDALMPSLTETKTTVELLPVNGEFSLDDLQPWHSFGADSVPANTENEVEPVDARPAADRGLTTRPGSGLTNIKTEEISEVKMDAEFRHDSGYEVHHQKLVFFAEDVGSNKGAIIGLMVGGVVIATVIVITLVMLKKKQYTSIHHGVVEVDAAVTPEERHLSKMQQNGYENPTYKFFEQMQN
UniProt Q9UM73, whole entry, looked up: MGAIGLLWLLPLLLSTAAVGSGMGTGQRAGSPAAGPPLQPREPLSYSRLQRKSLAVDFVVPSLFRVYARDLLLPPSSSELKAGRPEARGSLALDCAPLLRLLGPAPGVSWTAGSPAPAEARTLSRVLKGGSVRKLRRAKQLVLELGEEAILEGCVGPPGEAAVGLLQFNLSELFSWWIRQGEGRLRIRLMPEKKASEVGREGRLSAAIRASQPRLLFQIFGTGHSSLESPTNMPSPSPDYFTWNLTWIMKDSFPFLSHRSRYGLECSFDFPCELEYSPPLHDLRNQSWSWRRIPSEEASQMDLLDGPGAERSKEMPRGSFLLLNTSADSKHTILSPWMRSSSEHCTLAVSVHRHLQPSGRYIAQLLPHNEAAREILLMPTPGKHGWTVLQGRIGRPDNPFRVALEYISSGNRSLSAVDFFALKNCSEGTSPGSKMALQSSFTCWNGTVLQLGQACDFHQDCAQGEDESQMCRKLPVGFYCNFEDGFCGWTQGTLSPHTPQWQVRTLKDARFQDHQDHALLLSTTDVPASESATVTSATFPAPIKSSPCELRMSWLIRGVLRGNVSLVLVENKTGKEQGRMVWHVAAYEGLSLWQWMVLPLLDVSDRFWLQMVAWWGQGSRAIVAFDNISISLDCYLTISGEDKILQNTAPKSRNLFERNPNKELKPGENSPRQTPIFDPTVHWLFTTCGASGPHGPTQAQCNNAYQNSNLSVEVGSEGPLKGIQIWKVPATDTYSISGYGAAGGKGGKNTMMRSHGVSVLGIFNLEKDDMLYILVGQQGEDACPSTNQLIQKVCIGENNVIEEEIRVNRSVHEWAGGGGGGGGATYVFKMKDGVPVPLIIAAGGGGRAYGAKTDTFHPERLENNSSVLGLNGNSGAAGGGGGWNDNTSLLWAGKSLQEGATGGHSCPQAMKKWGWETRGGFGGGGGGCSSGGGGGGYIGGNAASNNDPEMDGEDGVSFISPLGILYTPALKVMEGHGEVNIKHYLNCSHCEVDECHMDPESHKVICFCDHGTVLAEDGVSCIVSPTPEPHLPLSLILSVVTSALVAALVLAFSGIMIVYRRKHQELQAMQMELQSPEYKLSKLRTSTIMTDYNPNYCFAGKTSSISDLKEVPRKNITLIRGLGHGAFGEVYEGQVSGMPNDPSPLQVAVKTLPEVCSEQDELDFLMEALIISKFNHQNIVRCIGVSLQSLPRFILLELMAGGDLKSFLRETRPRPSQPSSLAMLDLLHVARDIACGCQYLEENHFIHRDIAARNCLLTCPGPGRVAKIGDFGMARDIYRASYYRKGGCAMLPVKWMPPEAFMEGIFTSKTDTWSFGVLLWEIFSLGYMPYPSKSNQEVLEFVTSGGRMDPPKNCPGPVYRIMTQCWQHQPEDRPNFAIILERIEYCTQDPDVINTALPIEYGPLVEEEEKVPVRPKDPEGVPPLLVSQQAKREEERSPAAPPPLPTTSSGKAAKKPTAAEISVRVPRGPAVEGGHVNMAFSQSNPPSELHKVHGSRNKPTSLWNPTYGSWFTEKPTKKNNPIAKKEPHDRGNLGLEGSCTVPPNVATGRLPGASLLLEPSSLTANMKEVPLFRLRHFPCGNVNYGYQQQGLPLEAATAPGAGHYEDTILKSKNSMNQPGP
UniProt Q9NV35, whole entry: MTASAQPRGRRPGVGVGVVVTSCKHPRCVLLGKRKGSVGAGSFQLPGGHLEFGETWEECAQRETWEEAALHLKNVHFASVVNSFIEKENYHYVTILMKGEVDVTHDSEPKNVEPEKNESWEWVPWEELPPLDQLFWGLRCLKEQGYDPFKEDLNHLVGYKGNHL
UniProt Q61009, whole entry: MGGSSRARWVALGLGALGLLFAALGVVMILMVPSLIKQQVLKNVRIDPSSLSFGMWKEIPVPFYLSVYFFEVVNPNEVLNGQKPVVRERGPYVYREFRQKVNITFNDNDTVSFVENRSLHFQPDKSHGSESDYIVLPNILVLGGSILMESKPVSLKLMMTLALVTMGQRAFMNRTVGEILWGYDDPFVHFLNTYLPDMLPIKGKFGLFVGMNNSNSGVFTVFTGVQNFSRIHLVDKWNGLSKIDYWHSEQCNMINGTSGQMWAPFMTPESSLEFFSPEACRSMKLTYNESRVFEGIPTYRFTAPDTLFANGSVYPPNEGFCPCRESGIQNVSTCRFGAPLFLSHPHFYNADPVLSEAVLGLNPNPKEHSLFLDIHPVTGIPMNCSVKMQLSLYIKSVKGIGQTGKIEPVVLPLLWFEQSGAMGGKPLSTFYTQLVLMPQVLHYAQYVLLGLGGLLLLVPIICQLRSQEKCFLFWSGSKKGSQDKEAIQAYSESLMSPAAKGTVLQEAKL
UniProt P48067, whole entry: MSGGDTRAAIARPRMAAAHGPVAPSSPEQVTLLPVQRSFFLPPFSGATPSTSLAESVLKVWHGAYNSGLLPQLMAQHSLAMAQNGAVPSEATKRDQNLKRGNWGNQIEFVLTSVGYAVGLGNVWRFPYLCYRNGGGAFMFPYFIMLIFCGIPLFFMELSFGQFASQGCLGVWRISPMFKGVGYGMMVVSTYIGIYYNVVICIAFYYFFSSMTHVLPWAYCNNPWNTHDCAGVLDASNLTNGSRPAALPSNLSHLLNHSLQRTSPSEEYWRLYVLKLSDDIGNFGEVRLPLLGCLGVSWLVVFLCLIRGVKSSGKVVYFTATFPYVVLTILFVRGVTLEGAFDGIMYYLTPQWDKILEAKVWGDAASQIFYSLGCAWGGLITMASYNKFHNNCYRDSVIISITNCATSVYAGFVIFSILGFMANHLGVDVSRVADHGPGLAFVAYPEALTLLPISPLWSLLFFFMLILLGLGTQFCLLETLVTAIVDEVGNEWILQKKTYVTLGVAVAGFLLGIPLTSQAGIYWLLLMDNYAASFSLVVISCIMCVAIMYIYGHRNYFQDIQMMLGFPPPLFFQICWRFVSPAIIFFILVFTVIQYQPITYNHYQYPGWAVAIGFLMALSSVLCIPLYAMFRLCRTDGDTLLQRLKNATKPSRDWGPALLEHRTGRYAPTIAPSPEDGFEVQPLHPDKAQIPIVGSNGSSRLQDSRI

| SMILES | target | assay | system | setting | IC50 |
| --- | --- | --- | --- | --- | --- |
| [N-]=[N+]=NCc1cc(N=[N+]=[N-])cc(C(=O)NCCCc2cc(C(=O)[O-])c[n+]([C@@H]3O[C@H](COP(=O)(O)OP(=O)(O)OC[C@H]4O[C@@H](n5cnc6c(N)ncnc65)[C@H](OP(=O)(O)O)[C@@H]4O)[C@@H](O)[C@H]3O)c2)c1 | NAADP receptor Strongylocentrotus purpuratus | desensitization of calcium release | sea urchin egg homogenate | 7 min preincubation, added: NAADP 1 µM | 13 µM |
| C[C@H](Nc1nc(N[C@H](C)C2CC2)nc(-c2cccc(C(F)(F)F)n2)n1)C1CC1 | Isocitrate dehydrogenase [NADP] cytoplasmic, homodimer (IDH1, Homo sapiens, UniProt O75874, R132H) | enzyme activity, inhibitor, diaphorase/resazurin coupled | – | – | 0.058 µM |
| CC[C@H](N)c1nc2cc(-c3ccncc3F)sc2c(=O)[nH]1 | Cell division cycle 7-related protein kinase (CDC7, Homo sapiens, UniProt O00311) | enzyme activity, inhibitor | – | – | 0.0296 ± 0.00118 µM |
| CCCCN(CCc1ccc(Cl)c(Cl)c1)C[C@H](O)COc1ccc(NS(C)(=O)=O)cc1 | Glutamate NMDA receptor; Grin1/Grin2b (Grin1/Grin2b, Rattus norvegicus, UniProt P35439+Q00960) | – | – | pH 7.35 | 2.2 µM |
| COc1ccc(-c2nc(S(C)(=O)=O)nn2-c2ccc(OC)cc2)cc1 | Prostaglandin G/H synthase 2 (Macaca mulatta, UniProt F7BWZ9) | PGE2 production, inhibitor, enzyme immunoassay | monkey whole blood | – | > 1 µM |
| CC(=NNC(=N)N)c1sc(-c2ccc(C#Cc3ccccc3)cc2)nc1C | DNA gyrase subunit B (gyrB, Escherichia coli, UniProt P0AES6) | DNA supercoiling, inhibitor | – | free compound | 25.6 ± 1.54 mg/L |
| CC(=O)Nc1cc(Nc2cc(NC3CC3)n3ncc(C#N)c3n2)ccc1N(C)CCN(C)C | CSNK2A1 | target engagement, NanoBRET | HEK293 | – | 0.0027 µM |
| CCNC(=O)C(=O)[C@H](Cc1ccccc1)NC(=O)[C@H]1CCC(=O)N1Cc1ccccc1 | Calpain-1 catalytic subunit (CAPN1, Homo sapiens, UniProt P07384) | enzyme activity, inhibitor | – | – | 0.27 ± 0.03 µM |
| CN1CC[C@H](c2c(O)cc(O)c3c(=O)cc(-c4ccccc4F)oc23)[C@H](O)C1 | CSNK2A1 | – | – | ATP at Km | > 10 µM |
| CC(C)NC(=O)CSc1nc2ccc(NC(=O)CSc3ccc(Cl)c(Cl)c3)cc2s1 | Estrogen receptor (ESR1, Homo sapiens, UniProt P03372) | reporter gene, antagonist | HEC-1 transfected ERα luciferase reporter | – | > 50 µM |
| O=C(OC(C(F)(F)F)C(F)(F)F)N1CC[C@H](OC(c2ccc(F)cc2)c2ccc(F)cc2)C1 | Monoglyceride lipase (MGLL, Homo sapiens, UniProt Q99685) | inhibitor, fluorescence | – | added: AHMMCE substrate | 0.101 ± 0.0111 µM |
| CCOc1ccc(Nc2nc(-c3sc(N)nc3C)cs2)cc1 | Protein-lysine 6-oxidase (Homo sapiens, UniProt P28300) | LOX activity, inhibitor | MDA-MB-231 | – | > 10 µM and 12.5 µM |
| Clc1ccc(C2(c3ccc(-c4ccnc5ncccc45)cc3)CCNCC2)cc1 | Serine/threonine-protein kinase LATS2 (LATS2, Homo sapiens, UniProt Q9NRM7) | kinase activity, inhibitor, radiometric HotSpot | – | added: ATP 10 µM | > 10 µM |
| N#Cc1ccc2[nH]cc(/C=C/c3cccc(F)c3)c2c1 | Amyloid-beta precursor protein, amyloid-beta peptide (APP, Homo sapiens, UniProt P05067) | Aβ42 oligomerisation, ELISA | – | – | > 20 µM |
| Cc1csc(-c2ccc(-c3csnn3)cc2)n1 | ALK tyrosine kinase receptor (ALK, Homo sapiens, UniProt Q9UM73) | ELISA | – | – | 100 µM |
| O=C(Nc1ccc2[nH]ccc2c1)N1CCN(S(=O)(=O)c2ccc3[nH]c(=O)oc3c2)CC1 | Nucleotide triphosphate diphosphatase NUDT15 (NUDT15, Homo sapiens, UniProt Q9NV35) | enzyme activity, inhibitor, malachite green | – | added: dGTP | 3.5 µM |
| CCC(=O)Nc1ccc(-c2csc(NC(=O)c3ccco3)n2)cc1 | Scavenger receptor class B member 1 (Mus musculus, UniProt Q61009) | DiI-HDL uptake, inhibitor | mouse cells | added: DiI-HDL | 2 µM |
| COc1cc2c(cc1OC)C(=O)C(=Cc1ccccc1OC(=O)N(C)C)C2 | Cocaine esterase (CES2, Homo sapiens, UniProt O00748) | inhibitor | – | 3 min preincubation, added: fluorescein diacetate | 0.0115 ± 0.00247 µM |
| Cn1cnc(S(=O)(=O)N2C[C@@H]3[C@H](C2)[C@@]3(CNC(=O)c2ccc(Cl)cc2Cl)CC2CC2)c1 (relative stereo) | Sodium- and chloride-dependent glycine transporter 1 (SLC6A9, Homo sapiens, UniProt P48067) | glycine uptake, inhibitor, [14C]glycine uptake | cells expressing target | – | 0.004 µM |

Repeated from above:
| SMILES | target | assay | system | setting | IC50 |
| --- | --- | --- | --- | --- | --- |
| COc1ccc(-c2nc(S(C)(=O)=O)nn2-c2ccc(OC)cc2)cc1 | Prostaglandin G/H synthase 2 (Macaca mulatta, UniProt F7BWZ9) | PGE2 production, inhibitor, enzyme immunoassay | monkey whole blood | – | > 1 µM |
